Assay results pooled from the literature.
Numbered parts are unrelated; each lists some results of a single study.

Block 1
Target: Interferon regulatory factor 5, full length, phosphomimetic (IRF5, Homo sapiens, UniProt Q13568-2, residues 1-514, S451D/S453D/S456D/S462D)
Technique: protein-binding microarray
Form: double-stranded DNA, one strand shown
Sample: in vitro
Concentration: 940 nM top
Notes: 60-bp whole probe
With: salmon DNA 0.4 mg/ml
Reference: random background probes
Direction: higher = stronger binding
Constant ends, left off below: GCCTAGCAC … GTCTTGATTCGCTTGACGCTGCTG
| Oligonucleotide | fitted relative affinity [z-score] |
| --- | --- |
| CACTCTTTCCTCACCATACTGTGCTAG | 1.79 |
| GACGCTATCAGTCTCGAGACGTGCTAG | 1.18 |
| GACGGTATCGGGTTTCGCGACGTGCTA | 4.92 |
| CTCTACATGTGTTTAAAAAGGTGCTAG | -0.467 |
| GACGGACTGGACTATCGGGAAGTGCTA | -0.128 |
| GAGGGACTGGACACTGGGGACGTGCTA | -0.53 |
| TTAGATCGCAGACTGGATTAGTGCTAG | -0.581 |
| GACGCTATCCTTCTCCTGACGTGCTAG | 0.342 |
| TTAGAACTGAGTCTCGATTCGTGCTAG | 2.08 |
| TTAGGACGGGGTCTCGGTTAGTGCTAG | 1.49 |
| TCATTTAGTAGTTTCTAACTGTGCTAG | 0.086 |
| TTAGGTATCGACACTTGGTTAGTGCTA | 4.29 |
| GACGGCTTCCTTTCCCTGACGTGCTAG | 0.617 |
| TTAGGTATCGGGACTGCGTTAGTGCTA | 4.29 |
| GACAATATCGGGTATCGAGACGTGCTA | 0.837 |
| AAAACACTAATTTTCATTTTGTGCTAG | 0.478 |
| TCACATTTATTTACTCTCACTGTGCTA | 2.17 |
| GACGAACTGGGGTTTCGAGACGTGCTA | 1.88 |

Block 2
Target: RNA binding protein fox-1 homolog 2, RRM domain, GST-SBP tag (RBFOX2, Homo sapiens, UniProt O43251-10, residues 100-194)
Technique: RNA Bind-n-Seq
Form: RNA
Sample: in vitro
Concentration: 365 nM
Notes: natural RNA segment, single round, ends assumed
Reference: no-protein control
Direction: higher = stronger binding
Target sequence (chain): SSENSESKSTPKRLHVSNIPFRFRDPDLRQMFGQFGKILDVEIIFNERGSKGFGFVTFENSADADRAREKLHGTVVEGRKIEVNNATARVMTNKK
| Oligonucleotide | RBNS enrichment (R) |
| --- | --- |
| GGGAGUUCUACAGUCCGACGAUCUUAUAUGCUAAAUGCAUAUUUUAUGAUUUGCUGUAUUAACUGAUGAUAAAACUAAUGGCAGAAAAAGAAGUUGAGCAAUUUCUAUGUAAUGUACAGAUACUAGCAUUGCAUGGAAUUCUCGGGUGCCAA | 1.39 |
| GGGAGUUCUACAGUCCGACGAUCGGGAAAAGGGGGCAAAGCCCCCACUUUUUAUACACUAGGCGGGGUAGACUGCGGGGUCCUAGCCUCUUCCUCCGACUUUGCUUUUGCAGGUCUUUCACUGCAGAUGGGGCUGGAAUUCUCGGGUGCCAA | 0.559 |
| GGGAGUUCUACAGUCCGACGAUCACCGGAAAGGUGGCCCCAGCUGUUGACUUCCAGUCACUGUCCCAGACGGCACAAGGUUUUCUGUAGGAAAGCUGCCAUUGCCCCGGCCCCUUUUCUUCCUUUGUCCCGUUUGGAAUUCUCGGGUGCCAA | 0.305 |
| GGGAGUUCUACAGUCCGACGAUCCAAGUGCGAUGGUGUUGCCUUUCCAUGGGAUAUUGCAUUUUCUUACACUACCCGAGAUGUCCAGACGUGCUUGGUAGGAGGCUACUCCCUAGGUGCUGCCUUUCUAAGUUUGGAAUUCUCGGGUGCCAA | 4.05 |
| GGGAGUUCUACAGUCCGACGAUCGUGGUUGGGGCAUUUUUAAAUGGCUGGCUACACUUGUUUUCCCUCAUGAUAAUUUGUCAUAACUCAGUAGCAUGACCUGCCCCUAGAAGGUAGUUAAAAUUUGUAAAUGCUGGAAUUCUCGGGUGCCAA | 1.05 |
| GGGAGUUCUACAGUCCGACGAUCCCACCUCCCACUGGGCACCCCCCAACACGGUGUCCUGCCACCCAGCGCCUGGCUCCAGGAAAACACGUUGCCUUCCUUCCCGGCAGCUUCGCCACUCUCCUUAUGGACUCUGGAAUUCUCGGGUGCCAA | 0.459 |
| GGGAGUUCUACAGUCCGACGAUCAUUUUUUGAUACCAACACUGAACAUUCAUCAGGGAACUUUCCUGAAGUUCAGCUCAAGACUACCCUACCUGCUGUGUUUGUGAGAAGAGUAGGAUCACACACACAGGUGCUGGAAUUCUCGGGUGCCAA | 0.4 |
| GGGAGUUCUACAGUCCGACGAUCGGCAGAUUCCUGCUUGGCAUAAGCAUUUGUAGGUCUUCAUUCAAUUCUGUUAGAUUUUUUUAUUGGACUUACAUAAUGCCGUUUAUUUGAGAAACACAUAACAUCUCUCCUGGAAUUCUCGGGUGCCAA | 0.321 |
| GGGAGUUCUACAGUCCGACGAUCACUUAUCCCCUACAAUAUUCUCCCACUCCAUACUUCUCCUUCUACCCCACCAUGUGCUCCCGUGCACUCCUCAGAUGGUCAGAGGGGUAACCCAAGUCCUUAGAGAAUUUUGGAAUUCUCGGGUGCCAA | 0.705 |
| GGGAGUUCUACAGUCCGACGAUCCCCUUUUAACCAGUGCUGUGAUGGAUGAAGGCCAAUCUUGUUUCCUUUCAUCUAGUACCUGGACCAUUCUCCCUAGACCCUUGCCUUCCUCCCUGGCCAACACAUACUUGUGGAAUUCUCGGGUGCCAA | 0.606 |
| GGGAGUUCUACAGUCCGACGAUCGGAUAUUCAUUUGAUUAUACGGGGGAGGGUCAGGGAAGAACGAACCUUGACGUUGCAGUGCAGUUUCACAGAUCGUUGUUAGAUCUUUAUUUUUAGCCAUGCACUGUUGUUGGAAUUCUCGGGUGCCAA | 0.513 |
| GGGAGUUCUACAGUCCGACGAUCCCUGGUGACCUCGCCGCUCUUCUUGAAUCAUGCUGGGCUGCCCCUGCUCAGCACCCCGCCUGGUGUGGGCCUGGUCUCAGCAGCGGCUGCGGCUGUGGCAGCCUCCAUCUUGGAAUUCUCGGGUGCCAA | 0.209 |

Block 3
Target: RING finger protein unkempt homolog, zinc fingers 1-6, GST-SBP tag (UNK, Homo sapiens, UniProt Q9C0B0, residues 30-357)
Technique: RNA Bind-n-Seq
Form: RNA
Sample: in vitro
Concentration: not given
Notes: RNA with constant flanks, human and mouse sites, ends assumed
Reference: input RNA pool
Direction: higher = stronger binding
Construct (chain): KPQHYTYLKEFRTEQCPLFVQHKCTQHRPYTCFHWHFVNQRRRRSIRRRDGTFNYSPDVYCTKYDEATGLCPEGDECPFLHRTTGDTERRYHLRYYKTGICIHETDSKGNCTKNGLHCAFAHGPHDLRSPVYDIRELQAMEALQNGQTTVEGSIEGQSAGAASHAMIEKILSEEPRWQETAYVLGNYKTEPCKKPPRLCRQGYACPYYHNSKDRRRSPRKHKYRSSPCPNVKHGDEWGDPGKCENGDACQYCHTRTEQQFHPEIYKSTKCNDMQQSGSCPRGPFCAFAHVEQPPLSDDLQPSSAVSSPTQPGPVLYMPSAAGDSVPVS
| Oligonucleotide | bound/input enrichment |
| --- | --- |
| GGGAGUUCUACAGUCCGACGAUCGUUCAUUUCCUGUUCACUACUAAUGGUGCUUCUCAUCCUCUGAUCUCUUCUCUCUCGUGUGUUAAACAAGUGUAUUAAAGAUGCUUCAUAAUGCCAACAACAUAGCAGGUCAGUGAACAUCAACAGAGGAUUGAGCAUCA | 0.807 ratio |
| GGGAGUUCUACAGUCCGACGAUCAUCCGAAUUGGCAGGAAUGAGUGUGUGGUUGUCAUUAGGGUGGACAAAGAAAAAGGAUAUAUUGAUUUGUCAAAAAGAAGAGUUUCUCCAGAGGAAGCAAUCAAAUGUGAAGACAAAUUCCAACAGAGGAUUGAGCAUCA | 0.334 ratio |
| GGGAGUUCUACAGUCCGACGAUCCUCAGAAGAGCCAAAUCGAAAAAUGGGGGGAGAUCUUUGCGAGAAAGGCUAGAAAAAAUCGGUUUGAAUUUACCCGCGGGCAGGCGCAAAGCAGCAAAUGUCACGUUACUCACCUCCCUGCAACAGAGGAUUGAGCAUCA | 0.192 ratio |
| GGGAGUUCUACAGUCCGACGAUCAUUUUUGUCUGUGGUUAGAACAUUUUCAUAAAACAGAUAAAGAAUGUGUAAUACUCUUAAUUUUUUUUUUUUUUUUUUUUUUUUUUUUGCUUUCUGCCUUCUAAAGUGCAACAGUAUAUACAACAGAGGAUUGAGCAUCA | 4.78 ratio |
| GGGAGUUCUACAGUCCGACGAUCGUCCAGCGCCUGAAUGAACUUGAGGCAAUGACUAGAGUAAGAUUGGACUUCUUGGAUCAACUGGCAAAAUUUUGGGAACUUCAAGGAUCUACAUUGAAGAUCCCUGUGGUGGAGAGAAAACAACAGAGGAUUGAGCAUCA | 0.224 ratio |
| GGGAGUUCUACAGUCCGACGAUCCCGUUCGAUCCUAGAGUUCUCUUUUCUGCUGGUCAUGAUGGAAACGUGAUAGUGUGGGAUCUGGCAAGAGGAGUCAAAAUACGAUCUUAUUUCAAUAUGAUUGAAGGCCAAGGACAUGGCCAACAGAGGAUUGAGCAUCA | 0.191 ratio |
| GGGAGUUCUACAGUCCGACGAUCAGUCAACCCUUGAGUCUUCUAGAAGCUGUCCUUCAGGAAUGUCAUAAUACUUUCACUGCCUGCUUUCAUUCUUUCUACCCAACUCCUGCCUUACAGUGGGCUUGCCUUUGUGAUCUGCUGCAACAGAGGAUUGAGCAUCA | 0.302 ratio |
| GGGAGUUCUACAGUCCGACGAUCGCCAGAUGCUGGGUUCAGGCCUGGGUGCCCAGAUCGAUGGCGCAGAGUGCGUGCUACGCAUGAACCAGGCACCCACCGUGGGCUUUGAGGAGGACGUGGGCCAGCGCAGCACUCUGCGCGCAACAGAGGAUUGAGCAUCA | 0.0715 ratio |
| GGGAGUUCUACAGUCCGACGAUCUUCGUUGGCUUCCUGGGCUGCUACGGGGCCAUCCAGGAAUCCCAGUGCCUGCUGGGGACGUUCUUCACCUGCCUGGUCAUCCUGUUUGCCUGUGAGGUGGCCGCCGGCAUCUGGGGCUUUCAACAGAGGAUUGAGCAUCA | 0.0815 ratio |
| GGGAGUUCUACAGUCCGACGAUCCAAGGAAGAGGAUGCUCCUCAUAGAGAAGAUUACUUUGAGCCCAUUUCUCCUGAUCGGAAUUCUGUUCCCCAGGAAGGGCAAUAUUCUGAUGAAGGAGAAGUAGAAGAGGAACAACAAGACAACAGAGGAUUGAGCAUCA | 0.506 ratio |
| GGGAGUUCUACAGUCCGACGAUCUCUGCAUGAUGUAGAAAUAAAUAAAAUUAUAUCCACAACUGCAUCAAAGACAGAAACACCAAUAGUGUCUAAGUCUCUGAGUUCUUCUUUGGAUGACACCGAAGUUAAGAAGGUUAUGGACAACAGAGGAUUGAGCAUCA | 0.383 ratio |

Mixed results
| Molecule | target | test | test system | conditions | how to read | measurement | result |
| --- | --- | --- | --- | --- | --- | --- | --- |
| PhoQ, residues 284 288 289 292 302 303 TASMAF | PhoP, residues 12 14 15 18 19 AQCLL (Escherichia coli, UniProt P23836) | Sort-seq, refers to: YFP reporter | E. coli | PhoQ-PhoP variant library, with: 10 µM Mg2+ | reference: high Mg2+ state, higher = stronger signaling | fold induction | 1.33 |

For quick reference, copied from above (block 1):
| Oligonucleotide | fitted relative affinity [z-score] |
| --- | --- |
| TTAGATCGCAGACTGGATTAGTGCTAG | -0.581 |
| GACAATATCGGGTATCGAGACGTGCTA | 0.837 |
| GACGGACTGGACTATCGGGAAGTGCTA | -0.128 |
| GACGCTATCCTTCTCCTGACGTGCTAG | 0.342 |
